Experimental data of several laboratories.
Protocols differ between the studies behind these lines. ± gives the spread as reported. Values after ≈ are worked out from the molar mass of the structure shown. Ends that are not written are not given here. * marks the point of attachment.
Organism: Escherichia coli

The MIC50 of `CC(C)C[C@H](NC(=O)[C@H](C)NC(=O)[C@H](CC(C)C)NC(=O)[C@H](CCCCN)NC(=O)[C@H](CC(C)C)NC(=O)[C@H](CCCCN)NC(=O)[C@@H](N)CCCCN)C(=O)N[C@@H](C)C(=O)N[C@@H](CCCCN)C(=O)N[C@@H](CC(C)C)C(=O)N[C@@H](C)C(=O)N1CCC[C@H]1C(=O)N[C@@H](CC(C)C)C(=O)N[C@@H](Cc1c[nH]c2ccccc12)C(=O)N[C@@H](CCCCN)C(=O)N[C@@H](C)C(=O)N[C@@H](CC(C)C)C(=O)N[C@@H](C)C(=O)N[C@@H](CC(C)C)C(=O)N[C@@H](CCCCN)C(=O)N[C@@H](CC(C)C)C(=O)N[C@@H](CCCCN)C(=O)N[C@@H](CCCCN)C(=O)N[C@@H](C)C(N)=O` is reported as 0.38 ± 0.08 µM (broth microdilution; TOP10; overnight, 37 °C).
With `O=C(Sc1cccccc1=O)c1ccccc1` the MIC80 was ≤ 30 µM.
With `CC[C@H](C)[C@H](N)C(=O)N[C@@H](CC(C)C)C(=O)N1CCC[C@H]1C(=O)N[C@@H](Cc1c[nH]c2ccccc12)C(=O)N[C@@H](CCCCN)C(=O)N[C@@H](Cc1c[nH]c2ccccc12)C(=O)N1CCC[C@H]1C(=O)N[C@@H](Cc1c[nH]c2ccccc12)C(=O)N[C@@H](Cc1c[nH]c2ccccc12)C(=O)N1CCC[C@H]1C(=O)N[C@@H](Cc1c[nH]c2ccccc12)C(=O)N[C@@H](CCCNC(=N)N)C(=O)N[C@@H](CCCNC(=N)N)C(N)=O` the MIC50 was 2 µg/mL (broth microdilution; 18 h, 30 clinical isolates).
For `CC(C)C[C@H](NC(=O)[C@H](C)NC(=O)[C@H](CC(C)C)NC(=O)[C@H](CCCCN)NC(=O)[C@H](CCCCN)NC(=O)[C@H](Cc1c[nH]c2ccccc12)NC(=O)[C@H](CC(C)C)NC(=O)[C@@H]1CCCN1C(=O)[C@H](C)NC(=O)[C@H](CC(C)C)NC(=O)[C@H](CCCCN)NC(=O)[C@H](CCCCN)NC(=O)[C@H](CC(C)C)NC(=O)[C@H](C)NC(=O)[C@H](CC(C)C)NC(=O)[C@H](C)NC(=O)[C@H](CC(C)C)NC(=O)[C@H](CCCCN)NC(=O)[C@@H](N)CCCCN)C(=O)N[C@@H](C)C(=O)N[C@@H](CC(C)C)C(=O)N[C@@H](CCCCN)C(=O)N[C@@H](CCCCN)C(=O)N[C@@H](C)C(N)=O`, the MIC50 was 0.97 ± 0.06 µM (broth microdilution; NCTC 9001; overnight, 37 °C).
With `CC[C@H](C)[C@H](NC(=O)[C@H](C)NC(=O)[C@H](CCCCN)NC(=O)[C@@H](NC(=O)[C@@H]1CCCN1C(=O)[C@@H](NC(=O)[C@H](CCCCN)NC(=O)[C@H](C)N)[C@@H](C)CC)[C@@H](C)CC)C(=O)N[C@@H](CCCCN)C(=O)N[C@H](C(=O)N[C@H](C(=O)NCC(=O)N[C@@H](CCCCN)C(=O)N[C@@H](C)C(=O)N[C@H](C(=O)NCC(=O)N[C@@H](CCCCN)C(=O)NCC(=O)N[C@@H](CC(C)C)C(=O)N[C@@H](CCCNC(=N)N)C(=O)N[C@@H](C)C(=O)N[C@H](C(=O)N[C@@H](CC(N)=O)C(=O)N[C@H](C(=O)N[C@@H](C)C(=O)N[C@@H](CO)C(=O)N[C@H](C(=O)N[C@@H](C)C(=O)N[C@@H](CC(N)=O)C(=O)N[C@@H](CC(=O)O)C(=O)N[C@H](C(=O)N[C@@H](Cc1ccccc1)C(=O)N[C@@H](CC(N)=O)C(=O)N[C@@H](Cc1ccccc1)C(=O)N[C@@H](CC(C)C)C(=O)N[C@@H](CCCCN)C(=O)N1CCC[C@H]1C(=O)N[C@@H](CCCCN)C(=O)N[C@@H](CCCCN)C(=O)N[C@@H](CCCNC(=N)N)C(=O)N[C@@H](CCCCN)C(=O)N[C@@H](Cc1c[nH]cn1)C(=O)O)C(C)C)[C@@H](C)O)[C@@H](C)CC)[C@@H](C)CC)C(C)C)C(C)C)[C@@H](C)O` the MBC was 2 µM (≈ 9.09 µg/mL) (DH5α; 24 h, 37 °C).
The MIC50 of `CC(C)C[C@H](NC(=O)[C@H](C)NC(=O)[C@H](CCCCN)NC(=O)[C@H](Cc1c[nH]c2ccccc12)NC(=O)[C@H](CC(C)C)NC(=O)[C@H](CC(C)C)NC(=O)[C@H](C)NC(=O)[C@@H]1CCCN1C(=O)[C@H](CCCCN)NC(=O)[C@H](C)NC(=O)[C@H](CC(C)C)NC(=O)[C@H](C)NC(=O)[C@H](CC(C)C)NC(=O)[C@H](CCCCN)NC(=O)[C@H](CC(C)C)NC(=O)[C@H](CCCCN)NC(=O)[C@@H](N)CCCCN)C(=O)N[C@@H](C)C(=O)N[C@@H](CC(C)C)C(=O)N[C@@H](CCCCN)C(=O)N[C@@H](CC(C)C)C(=O)N[C@@H](CCCCN)C(=O)N[C@@H](CCCCN)C(=O)N[C@@H](C)C(N)=O` is reported as 2.22 ± 0.63 µM (broth microdilution; NCTC 9001; overnight, 37 °C).
The MBC of `CC[C@H](C)[C@H](NC(=O)CN)C(=O)NCC(=O)N[C@@H](C)C(=O)N[C@H](C(=O)N[C@@H](CC(C)C)C(=O)N[C@@H](CCCCN)C(=O)N[C@H](C(=O)N[C@@H](CC(C)C)C(=O)N[C@H](C(=O)N[C@H](C(=O)NCC(=O)N[C@@H](CC(C)C)C(=O)N1CCC[C@H]1C(=O)N[C@@H](C)C(=O)N[C@@H](CC(C)C)C(=O)N[C@H](C(=O)N[C@@H](CO)C(=O)N[C@@H](Cc1c[nH]c2ccccc12)C(=O)N[C@H](C(=O)N[C@@H](CCCCN)C(=O)N[C@@H](CCCNC(=N)N)C(=O)N[C@@H](CCCCN)C(=O)N[C@@H](CCCNC(=N)N)C(=O)N[C@@H](CCC(N)=O)C(=O)N[C@@H](CCC(N)=O)C(N)=O)[C@@H](C)CC)[C@@H](C)CC)[C@@H](C)O)[C@@H](C)O)C(C)C)C(C)C` is reported as 10 µM (≈ 28.5 µg/mL) (DH5α; 24 h, 37 °C).
For `C=CCCC[n+]1cc(-c2ccc3ccccc3n2)cc2ccccc21`, the IC50 was > 100 µM (lacZ reporter expression; VirF-independent lacZ control; 3 h, 37 °C, 6.2% DMSO, with: 1 mM IPTG).
The MIC50 of `CC(C)C[C@H](NC(=O)[C@H](C)NC(=O)[C@H](CCCCN)NC(=O)[C@H](Cc1c[nH]c2ccccc12)NC(=O)[C@H](CC(C)C)NC(=O)[C@H](CC(C)C)NC(=O)[C@H](C)NC(=O)[C@H](CC(C)C)NC(=O)[C@H](CCCCN)NC(=O)[C@H](C)NC(=O)[C@@H]1CCCN1C(=O)[C@H](C)NC(=O)[C@H](CC(C)C)NC(=O)[C@H](CCCCN)NC(=O)[C@H](CC(C)C)NC(=O)[C@H](CCCCN)NC(=O)[C@@H](N)CCCCN)C(=O)N[C@@H](C)C(=O)N[C@@H](CC(C)C)C(=O)N[C@@H](CCCCN)C(=O)N[C@@H](CC(C)C)C(=O)N[C@@H](CCCCN)C(=O)N[C@@H](CCCCN)C(=O)N[C@@H](C)C(N)=O` is reported as 0.46 ± 0.11 µM (broth microdilution; TOP10; overnight, 37 °C).
`CC(C)[n+]1cc(-c2ccc3ccccc3n2)cc2ccccc21` has an IC50 of > 100 µM (lacZ reporter expression; VirF-independent lacZ control; 3 h, 37 °C, 6.2% DMSO, with: 1 mM IPTG).
`CC(C)C[C@H](NC(=O)[C@H](CCCNC(=N)N)NC(=O)[C@@H]1CCCN1C(=O)[C@H](CCCNC(=N)N)NC(=O)[C@@H]1CCCN1C(=O)[C@@H]1CCCN1C(=O)[C@H](CCCNC(=N)N)NC(=O)[C@@H]1CCCN1C(=O)[C@H](CCC(N)=O)NC(=O)[C@@H]1CCCN1C(=O)[C@H](CCCCN)NC(=O)[C@H](Cc1ccc(O)cc1)NC(=O)[C@@H](NC(=O)[C@@H]1CCCN1C(=O)[C@H](CCCNC(=N)N)NC(=O)[C@H](CC(N)=O)NC(=O)[C@H](CC(N)=O)NC(=O)CN)C(C)C)C(=O)O` gave an MIC of 0.067 ± 0.033 µM (≈ 0.144 µg/mL) (broth microdilution; BW25113 parental, Mueller-Hinton broth; 18 h, 37 °C).
With `CC(C)C[C@H](NC(=O)[C@H](CCCCN)NC(=O)[C@H](CCCNC(=N)N)NC(=O)[C@@H](NC(=O)[C@H](CCCCN)NC(=O)[C@H](CCCCN)NC(=O)[C@@H](NC(=O)[C@H](Cc1ccccc1)NC(=O)[C@H](CCCNC(=N)N)NC(=O)[C@@H](N)CCCNC(=N)N)C(C)C)C(C)C)C(=O)N[C@H](C(=O)N[C@@H](CCCCN)C(=O)O)C(C)C` the EC50 was 3.1 µg/mL (≈ 1.99 µM) (bacterial killing, colony count; BL21; 1 h, pH 7, 37 °C).
For `CC[C@H](C)[C@H](NC(=O)CN)C(=O)NCC(=O)N[C@@H](C)C(=O)N[C@H](C(=O)N[C@@H](CC(C)C)C(=O)N[C@@H](CCCCN)C(=O)N[C@H](C(=O)N[C@@H](CC(C)C)C(=O)N[C@H](C(=O)N[C@H](C(=O)NCC(=O)N[C@@H](CC(C)C)C(=O)N1CCC[C@H]1C(=O)N[C@@H](C)C(=O)N[C@@H](CC(C)C)C(=O)N[C@H](C(=O)N[C@@H](CO)C(=O)N[C@@H](Cc1c[nH]c2ccccc12)C(=O)N[C@H](C(=O)N[C@@H](CCCCN)C(=O)N[C@@H](CCCNC(=N)N)C(=O)N[C@@H](CCCCN)C(=O)N[C@@H](CCCNC(=N)N)C(=O)N[C@@H](CCC(N)=O)C(=O)N[C@@H](CCC(N)=O)C(N)=O)[C@@H](C)CC)[C@@H](C)CC)[C@@H](C)O)[C@@H](C)O)C(C)C)C(C)C`, the MBC was 2 µM (≈ 5.69 µg/mL) (K-12 sample A (CGSC sample B)).
`CC(C)C[C@H](NC(=O)[C@H](C)NC(=O)[C@H](CC(C)C)NC(=O)[C@H](CCCCN)NC(=O)[C@H](CCCCN)NC(=O)[C@H](Cc1c[nH]c2ccccc12)NC(=O)[C@H](CC(C)C)NC(=O)[C@H](CC(C)C)NC(=O)[C@H](C)NC(=O)[C@H](CC(C)C)NC(=O)[C@H](CCCCN)NC(=O)[C@H](CCCCN)NC(=O)[C@H](CC(C)C)NC(=O)[C@H](C)NC(=O)[C@H](CC(C)C)NC(=O)[C@H](C)NC(=O)[C@H](CC(C)C)NC(=O)[C@H](CCCCN)NC(=O)[C@@H](N)CCCCN)C(=O)N[C@@H](C)C(=O)N[C@@H](CC(C)C)C(=O)N[C@@H](CCCCN)C(=O)N[C@@H](CCCCN)C(=O)N[C@@H](C)C(N)=O` has an MIC50 of 1.47 ± 0.64 µM (broth microdilution; TOP10; overnight, 37 °C).
`GSS(Octanoyl)FLSPEHQRVQQRKESKKPPAKLQPR (acyl-ghrelin; Octanoyl = CCCCCCCC(=O)*; sequence looked up)` gave a dead bacteria of ~75% (LIVE/DEAD staining; peptide, sodium phosphate buffer; 200 µg/mL, 2 h, pH 6.8, 37 °C).
The MBC of `CC(C)C[C@@H](NC(=O)[C@H](C)NC(=O)CNC(=O)[C@@H](NC=O)C(C)C)C(=O)N[C@@H](C)C(=O)N[C@@H](C(=O)N[C@H](C(=O)N[C@@H](C(=O)N[C@@H](Cc1c[nH]c2ccccc12)C(=O)N[C@H](CC(C)C)C(=O)N[C@@H](Cc1c[nH]c2ccccc12)C(=O)N[C@H](CC(C)C)C(=O)N[C@@H](Cc1c[nH]c2ccccc12)C(=O)N[C@H](CC(C)C)C(=O)N[C@@H](Cc1c[nH]c2ccccc12)C(=O)NCCO)C(C)C)C(C)C)C(C)C` is reported as 8 µM (≈ 15.1 µg/mL) (K-12 sample A (CGSC sample B)).

Repeated from above:
For `CC[C@H](C)[C@H](NC(=O)CN)C(=O)NCC(=O)N[C@@H](C)C(=O)N[C@H](C(=O)N[C@@H](CC(C)C)C(=O)N[C@@H](CCCCN)C(=O)N[C@H](C(=O)N[C@@H](CC(C)C)C(=O)N[C@H](C(=O)N[C@H](C(=O)NCC(=O)N[C@@H](CC(C)C)C(=O)N1CCC[C@H]1C(=O)N[C@@H](C)C(=O)N[C@@H](CC(C)C)C(=O)N[C@H](C(=O)N[C@@H](CO)C(=O)N[C@@H](Cc1c[nH]c2ccccc12)C(=O)N[C@H](C(=O)N[C@@H](CCCCN)C(=O)N[C@@H](CCCNC(=N)N)C(=O)N[C@@H](CCCCN)C(=O)N[C@@H](CCCNC(=N)N)C(=O)N[C@@H](CCC(N)=O)C(=O)N[C@@H](CCC(N)=O)C(N)=O)[C@@H](C)CC)[C@@H](C)CC)[C@@H](C)O)[C@@H](C)O)C(C)C)C(C)C`, the MBC was 2 µM (≈ 5.69 µg/mL) (K-12 sample A (CGSC sample B)).
